Measurements gathered from unrelated publications.
Each numbered part is a random draw from the data of one study; scales do not carry over between parts.

Set 1
Target: Histone acetyltransferase KAT6A, winged helix 1, GST fusion (KAT6A, Homo sapiens, UniProt Q92794, residues 1-85)
Method: protein binding microarray
Molecule type: double-stranded DNA, one strand shown
Sample: in vitro
Tested at: not given
Notes: 8-mer, flanks averaged, mean of 2 arrays, mostly near background
Baseline: not given
Reading: higher = stronger binding
Target sequence (chain): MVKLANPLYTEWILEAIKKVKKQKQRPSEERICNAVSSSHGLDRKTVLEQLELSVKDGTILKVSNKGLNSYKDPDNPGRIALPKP
Oligonucleotide | E-score
CCTTTTGC | -0.0221
AAATGCAG | -0.227
CAGCGTCC | 0.111
ACAACGAC | 0.0414
CATAGCAG | -0.175
AGTATGAA | -0.0559
AGATCCGC | 0.242
AAGGCAAC | -0.192

Set 2
Target: Replicase polyprotein 1ab, main protease (rep, Severe acute respiratory syndrome coronavirus 2, UniProt P0DTD1)
Read-out: enzyme activity
Mode: inhibitor
Tested at: 20 µM
Notes: primary screen
Compound | inhibition
C[C@@H]1O[C@@H](O[C@@H]2[C@@H](O)[C@H](OCCc3ccc(O)c(O)c3)O[C@H](CO)[C@H]2OC(=O)/C=C/c2ccc(O)c(O)c2)[C@H](O)[C@H](O)[C@H]1O | 94.2%
NC(CN(O)N=O)C(=O)O (centres unmarked) | 21%
COc1cc2c(cc1OC(C)C)[C@H](c1ccc(Cl)cc1)N(c1ccc(N(C)C[C@H]3CC[C@H](N4CCN(C)C(=O)C4)CC3)cc1)C(=O)C2 | 26.2%

Set 3
Target: RNA binding protein fox-1 homolog 2, RRM domain, GST-SBP tag (RBFOX2, Homo sapiens, UniProt O43251-10, residues 100-194)
Method: RNA Bind-n-Seq
Molecule type: RNA
Sample: in vitro
Tested at: 365 nM
Notes: natural RNA segment, single round, ends assumed
Baseline: no-protein control
Reading: higher = stronger binding
Target sequence (chain): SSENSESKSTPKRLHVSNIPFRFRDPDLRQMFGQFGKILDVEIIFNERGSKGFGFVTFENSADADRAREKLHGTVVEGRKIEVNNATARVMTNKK
Oligonucleotide | RBNS enrichment (R)
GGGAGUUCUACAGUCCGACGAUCUUGGUCUUAGUUUUGAUCCUGUUGCAGCAAAAUCCUGCAGCAUCUUUCUCUCCAAUAAUGUUGCAACUCACCAAAACUAUUCUUGAAGAGGUCCAAGAACAUGUAUUAUCUGGAAUUCUCGGGUGCCAA | 1.18
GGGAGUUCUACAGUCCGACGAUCGAAGCACAUAGUCAGCGGCUGGGGUUGAAGAGUGAGUGUCACCAUGCCUUUUAGUGGAGACCUGCAGGCAAGCCUUUGGCCCACUGAUCACUGCCUUUCCCCCUCCACCGUGGAAUUCUCGGGUGCCAA | 0.226
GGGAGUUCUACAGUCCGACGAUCCAGCCUCCAGCUGCACUGGGAGACGUAGGGAGGGAAGCAGGGUCCACAGCCAUUCCCUCAUGAGAGGUGGCUCUCAUGGCAUCUUGCAAUGUUUGUCUUGUUUUGUUCAUUGGAAUUCUCGGGUGCCAA | 5.82
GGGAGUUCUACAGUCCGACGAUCAUUUUGGAGUCUGUUUGGGAACUUUUAAGACUUCAAAGCAAAGUUAGCUACCAGCAAUUUCUGUAAACCAAGAGAAGAUUGUCACAAAGAUUCACUACUUUCCAACUGAAUGGAAUUCUCGGGUGCCAA | 0.411
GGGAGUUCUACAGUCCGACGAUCUUAUUAAACAUUUUGAGAUUUAGAUAAACUACAUUUUAACUGAAUGUCUAAAGUGAUUAUCUUUUUUCCCCCCAAGUUAGUCUUAAAUCUUUUGGGUUUGAAUGAAGGUUUGGAAUUCUCGGGUGCCAA | 0.653
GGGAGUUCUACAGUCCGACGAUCUGGCAGUAGGGUCAUGAUGUUGGGAAGGGUGUAGUGCCCUAGGUUGGUGACAGAAGGGACAGACACUUGUGCACAGGUGUCUUUGGUGAUGGGGUUUUUUUUUUUAUAACUGGAAUUCUCGGGUGCCAA | 0.89
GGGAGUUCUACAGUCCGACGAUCAAAGCAUCUACAUCAAUGUUUAUAAAGCAAUCAUUUGUGAACGCCGUGAUGCUGUUUUGUAACACAAACUGAUCUCCUUUAGUUCAGUUUGUCUCCUGUAAAUAGCGGCUUGGAAUUCUCGGGUGCCAA | 0.226
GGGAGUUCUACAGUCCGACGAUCCUCAAAAGUUAAGAGCAAAUUAUGGAAGAAUAAUUUGAUGUCUUUGAGAAACCAUGAGGUUUCUUUGUAUUAAAAUUUGAAAUAAAUUUCUACUUAUCUUUUGGUAUUGGUGGAAUUCUCGGGUGCCAA | 0.625

Set 4
Target: Replicase polyprotein 1ab, polymerase (rep, Severe acute respiratory syndrome coronavirus 2, UniProt P0DTD1)
Read-out: enzyme activity
Mode: inhibitor
Tested at: 20 µM
SMILES | inhibition [%]
CC(C)C(=O)c1ccc(O)c(O)c1 | 8
CC(C)CN(C[C@@H](O)[C@H](Cc1ccccc1)NC(=O)O[C@H]1CO[C@H]2OCC[C@H]21)S(=O)(=O)c1ccc(N)cc1 | -1.84
CCC(=O)OCN1C(=O)C=CC1=O | -2.04
CC(=O)c1ccc2c(c1)N(CCCN(C)C)c1ccccc1S2 | -3.66
O=C(c1ccc(-c2ccc(Cl)cc2)o1)N(Cc1ccccn1)c1ccc(N2CCNCC2)cc1 | 1.38
CCN1CCN(C(=O)N[C@@H](C(=O)N[C@@H]2C(=O)N3[C@@H]2SC(C)(C)[C@@H]3C(=O)O)c2ccccc2)C(=O)C1=O | 16.8
Cc1cc(C(=O)NOCCO)c(Nc2ccc(I)cc2F)n(C)c1=O | 3.57
Cc1cccc(Nc2cc(Cl)nc(SCC(=O)O)n2)c1C | 2.37
COc1cccc(-n2nc(C(=O)O)cc2-c2ccc(C3CCCCC3)c(Cl)c2)c1 | -0.04
CCCCCCOC(=O)CCC(=O)CN | -3.24
COc1ccc(-c2oc3c(CC=C(C)C)c(O)cc(O)c3c(=O)c2O)cc1 | -5.84
NCCCC[C@H](NC(=O)[C@@H]1CCCN1C(=O)[C@@H]1CSSC[C@H](N)C(=O)N[C@@H](Cc2ccc(O)cc2)C(=O)N[C@@H](Cc2ccccc2)C(=O)N[C@@H](CCC(N)=O)C(=O)N[C@@H](CC(N)=O)C(=O)N1)C(=O)NCC(N)=O | 4.29
NC(=O)N1CCC(CC(=O)N2CCC([C@H]3c4ncc(Br)cc4CCc4cc(Cl)cc(Br)c43)CC2)CC1 | 1.18
c1ccc(Cn2c(N3CCNCC3)nc3ccccc32)cc1 | -4.33
FC(F)(F)c1ccc(/C=C/c2nc(COc3ccc(CCCCn4ccnn4)cc3)co2)cc1 | -28.2
CC(C)c1c2cc(-c3ccnc(N[C@H]4CC[C@H](NC5CCOCC5)CC4)n3)ccc2nn1C | -4.12
CC[N+](CC)(CC)CC(=O)Nc1c(C)cccc1C | 6.26
COc1ccccc1C1(O)CCN(CCCn2c3ccccc3c3ccccc32)CC1 | 13.2

Set 5
Target: Interferon regulatory factor 7, full length, phosphomimetic (IRF7, Homo sapiens, UniProt Q92985, residues 1-503, S471D/S472D/S475D/S476D/S477D/S483D/S484D/S487D)
Method: protein-binding microarray
Molecule type: double-stranded DNA, one strand shown
Sample: in vitro
Tested at: 2200 nM top
Notes: 60-bp whole probe
Together with: salmon DNA 0.4 mg/ml
Baseline: random background probes
Reading: higher = stronger binding
Shared flanks, not repeated: GCCTAGCAC … GTCTTGATTCGCTTGACGCTGCTG
Residues (chain): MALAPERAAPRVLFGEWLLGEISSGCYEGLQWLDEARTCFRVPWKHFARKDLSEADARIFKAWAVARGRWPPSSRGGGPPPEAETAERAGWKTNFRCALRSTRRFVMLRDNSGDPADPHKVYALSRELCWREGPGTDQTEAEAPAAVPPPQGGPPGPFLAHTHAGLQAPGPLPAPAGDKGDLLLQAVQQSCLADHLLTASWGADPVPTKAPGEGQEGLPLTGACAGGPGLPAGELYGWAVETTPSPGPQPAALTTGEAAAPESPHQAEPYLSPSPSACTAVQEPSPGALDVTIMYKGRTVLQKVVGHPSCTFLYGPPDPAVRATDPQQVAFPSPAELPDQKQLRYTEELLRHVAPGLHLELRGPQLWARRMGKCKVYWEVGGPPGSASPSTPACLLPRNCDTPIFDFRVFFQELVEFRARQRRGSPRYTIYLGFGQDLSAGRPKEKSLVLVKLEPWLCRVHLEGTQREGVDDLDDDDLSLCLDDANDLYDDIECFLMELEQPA
Oligonucleotide | fitted relative affinity [z-score]
GACGGTTTCCTTTCCCTCACGTGCTAG | 4.51
TTAGATTTCAGTTCCGATTCGTGCTAG | 3.26
TCACCACCCGCTCTGGCACTGTGCTAG | 0.562
TTACATTCCAGTTTCGATTAGTGCTAG | 8
GACGGTTTCAGTTTCGAGACGTGCTAG | 7.5
TCATGTCTGGGCATTTTTACTGTGCTA | -0.202
TTAGATATCGGGACTGGATGAGTGCTA | -0.359
TTAGGTTTCCTTTTCTTTTAGTGCTAG | 4.27

Set 6
Target: Fragile X messenger ribonucleoprotein 1, C-terminal low-complexity region (Fmr1, Mus musculus, UniProt P35922)
Method: RNA Bind-n-Seq
Molecule type: RNA
Sample: in vitro
Tested at: 200 nM
Notes: whole 134-nt RNA, ends assumed
Together with: 150 mM LiCl
Baseline: input library
Reading: higher = stronger binding
All molecules: 7-deaza-guanosine replaces G
Oligonucleotide | log2 enrichment
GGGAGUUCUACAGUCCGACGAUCUCCUGUGCUACACAUCGUAUGUACCGAAUCGGGAAAAAAAGGGUUUUUGGGAAAAAGGGAAAGUAUUAUGUUACGCCGUUCGGAUCUGCAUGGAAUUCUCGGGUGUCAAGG | -1.28
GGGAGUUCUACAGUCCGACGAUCGUCCUGUGCUACACAUCGUAUGUACCGAAUCAAACCCAAAUUUUUUUAAACCCCCAAAAAAGUAUUAUGUUACGCCGUUCGGAUCUGCACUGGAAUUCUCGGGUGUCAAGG | 1.06
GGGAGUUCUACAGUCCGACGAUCAAGUCCUGUGCUACACAUCGUAUGUACCGAAUCGGGUUUUUUUGGGAGGGUUUGGGAAAGUAUUAUGUUACGCCGUUCGGAUCUGCACUUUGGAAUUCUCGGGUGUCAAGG | -0.888
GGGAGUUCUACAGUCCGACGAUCCCUCAAGUCCUGUGCUACACAUCGUAUGUACCGAAUCGGGAGGGAGGGUGGGAAAGUAUUAUGUUACGCCGUUCGGAUCUGCACUUCCAGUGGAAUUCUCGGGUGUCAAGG | -1.31
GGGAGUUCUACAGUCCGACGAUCUCCUGUGCUACACAUCGUAUGUACCGAAUCGGGGAAAAAAGGAAAAAAGGAAAAAAGGGAAAGUAUUAUGUUACGCCGUUCGGAUCUGCAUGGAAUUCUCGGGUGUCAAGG | 0.0259

A few entries again (set 3):
Oligonucleotide | RBNS enrichment (R)
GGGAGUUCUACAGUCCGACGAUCUGGCAGUAGGGUCAUGAUGUUGGGAAGGGUGUAGUGCCCUAGGUUGGUGACAGAAGGGACAGACACUUGUGCACAGGUGUCUUUGGUGAUGGGGUUUUUUUUUUUAUAACUGGAAUUCUCGGGUGCCAA | 0.89
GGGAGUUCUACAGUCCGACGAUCCAGCCUCCAGCUGCACUGGGAGACGUAGGGAGGGAAGCAGGGUCCACAGCCAUUCCCUCAUGAGAGGUGGCUCUCAUGGCAUCUUGCAAUGUUUGUCUUGUUUUGUUCAUUGGAAUUCUCGGGUGCCAA | 5.82
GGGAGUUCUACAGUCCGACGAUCAUUUUGGAGUCUGUUUGGGAACUUUUAAGACUUCAAAGCAAAGUUAGCUACCAGCAAUUUCUGUAAACCAAGAGAAGAUUGUCACAAAGAUUCACUACUUUCCAACUGAAUGGAAUUCUCGGGUGCCAA | 0.411
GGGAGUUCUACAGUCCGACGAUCUUAUUAAACAUUUUGAGAUUUAGAUAAACUACAUUUUAACUGAAUGUCUAAAGUGAUUAUCUUUUUUCCCCCCAAGUUAGUCUUAAAUCUUUUGGGUUUGAAUGAAGGUUUGGAAUUCUCGGGUGCCAA | 0.653
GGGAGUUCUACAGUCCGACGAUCUUGGUCUUAGUUUUGAUCCUGUUGCAGCAAAAUCCUGCAGCAUCUUUCUCUCCAAUAAUGUUGCAACUCACCAAAACUAUUCUUGAAGAGGUCCAAGAACAUGUAUUAUCUGGAAUUCUCGGGUGCCAA | 1.18
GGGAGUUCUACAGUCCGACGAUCGAAGCACAUAGUCAGCGGCUGGGGUUGAAGAGUGAGUGUCACCAUGCCUUUUAGUGGAGACCUGCAGGCAAGCCUUUGGCCCACUGAUCACUGCCUUUCCCCCUCCACCGUGGAAUUCUCGGGUGCCAA | 0.226
